Measured values collected from several papers.
A part holds a random share of what one study measured. Substitutions count along the parent as printed.

Study 1 — technique: DHFR PCA, deep sequencing; medium: yeast; added: (+)-ABA 710 µM; relative to: wild-type fitted maximum; direction: higher = stronger binding; measurement: relative binding score
Target: ABI1, truncated, D143A, DHFR fusion (Arabidopsis thaliana)
Notes: methotrexate growth selection, single substitutions
Starting sequence: PYL1, truncated, DHFR fusion (Arabidopsis thaliana); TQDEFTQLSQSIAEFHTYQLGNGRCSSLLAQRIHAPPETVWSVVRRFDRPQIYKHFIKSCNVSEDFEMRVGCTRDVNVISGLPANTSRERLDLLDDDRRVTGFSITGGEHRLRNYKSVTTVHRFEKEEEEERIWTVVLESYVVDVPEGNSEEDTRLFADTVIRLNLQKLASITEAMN; partner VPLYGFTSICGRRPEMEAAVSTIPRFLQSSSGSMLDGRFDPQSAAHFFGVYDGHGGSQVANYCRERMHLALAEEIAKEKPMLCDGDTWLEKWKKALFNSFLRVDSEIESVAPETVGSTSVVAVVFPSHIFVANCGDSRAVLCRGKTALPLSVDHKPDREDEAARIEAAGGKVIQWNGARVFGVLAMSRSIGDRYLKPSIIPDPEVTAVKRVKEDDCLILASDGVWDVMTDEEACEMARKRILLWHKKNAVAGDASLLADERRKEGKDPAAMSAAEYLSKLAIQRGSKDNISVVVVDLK
Y115L: 71.4%
E174I: 89.4%
G21N: 96.1%
H122L: 72.7%
Q167Y: 78.2%
I52S: 100%
S63D: 107%
I172W: 87.4%
L28A: 83.1%
A35E: 52.1%
D3H: 106%
E147I: 97.8%
R113F: 99.3%
L164D: 35.3%
I33D: -20.5%
G108A: 50.9%
S9W: 93%
I105T: 98.6%
S26C: 104%
E64H: 106%
K126R: 109%
N77D: 96.2%
D3A: 102%
L20D: 105%
V137Q: 4.34%

Study 2 — target: CCNA1, cyclin fold, Cln2 fusion (human); technique: yeast growth competition, sequencing; medium: yeast; notes: weak parent motif; relative to: not given; direction: higher = stronger binding; measurement: normalised enrichment score
Starting sequence: MASTL docking peptide (human); PMIAKNLMCELDE; partner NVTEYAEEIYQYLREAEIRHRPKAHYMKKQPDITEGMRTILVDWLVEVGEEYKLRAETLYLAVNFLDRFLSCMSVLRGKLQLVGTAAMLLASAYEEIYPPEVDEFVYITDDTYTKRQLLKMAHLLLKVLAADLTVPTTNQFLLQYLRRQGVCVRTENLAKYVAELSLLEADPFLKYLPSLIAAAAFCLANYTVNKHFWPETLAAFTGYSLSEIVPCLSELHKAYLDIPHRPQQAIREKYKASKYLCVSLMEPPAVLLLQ
N6P: -0.148
N6G: -0.0135
C9A: 0.24
M2I: -0.00463
K5P: -0.236
N6D: 0.264
M8S: 0.171
D12C: 0.162
C9K: 0.0488
E10P: 0.14
K5W: 0.0161
M2S: 0.46
L7A: 0.0705
A4K: 0.685
A4T: 0.0964
L11D: -0.256
I3D: 0.0185
M2A: -0.328
I3T: 0.194
K5L: 0.0855
D12P: -0.0592
L11P: -0.14

Study 3 — target: FOSL1, bZIP domain (human); technique: DHFR protein complementation; medium: yeast; relative to: wild-type JUN-FOS pair; direction: higher = stronger binding; measurement: binding fitness
Notes: single substitutions, most at no-binding floor
Starting sequence: JUN, bZIP domain (human); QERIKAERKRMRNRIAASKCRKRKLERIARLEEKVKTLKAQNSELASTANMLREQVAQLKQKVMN; partner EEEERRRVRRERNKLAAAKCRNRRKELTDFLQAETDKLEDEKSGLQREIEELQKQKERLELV
K39V: -0.602 natural log
A57E: -0.343 natural log
E44S: -0.588 natural log
E33F: -0.708 natural log
E32W: -0.685 natural log
V35T: -1.04 natural log
S43K: -0.119 natural log
L31T: -1.33 natural log
E32T: -0.44 natural log
L45T: -1.44 natural log
T48F: -0.437 natural log
E54D: -0.672 natural log
S47C: -0.421 natural log
V35P: -1.45 natural log
A46E: -0.321 natural log
Q55V: -0.583 natural log
N42K: -0.702 natural log
N42V: -0.126 natural log
R53Q: -0.942 natural log
E54F: -0.737 natural log
S47E: -0.197 natural log
I28S: -0.976 natural log

Study 4 — technique: universal PBM; form: double-stranded DNA, one strand shown; medium: in vitro; tested at: 600 nM; direction: higher = stronger binding; measurement: E-score
Target: Sal-like protein 4, full length isoform A (SALL4, Homo sapiens, UniProt Q9UJQ4, residues 1-1053)
Chain of UniProt Q9UJQ4 (whole entry, looked up): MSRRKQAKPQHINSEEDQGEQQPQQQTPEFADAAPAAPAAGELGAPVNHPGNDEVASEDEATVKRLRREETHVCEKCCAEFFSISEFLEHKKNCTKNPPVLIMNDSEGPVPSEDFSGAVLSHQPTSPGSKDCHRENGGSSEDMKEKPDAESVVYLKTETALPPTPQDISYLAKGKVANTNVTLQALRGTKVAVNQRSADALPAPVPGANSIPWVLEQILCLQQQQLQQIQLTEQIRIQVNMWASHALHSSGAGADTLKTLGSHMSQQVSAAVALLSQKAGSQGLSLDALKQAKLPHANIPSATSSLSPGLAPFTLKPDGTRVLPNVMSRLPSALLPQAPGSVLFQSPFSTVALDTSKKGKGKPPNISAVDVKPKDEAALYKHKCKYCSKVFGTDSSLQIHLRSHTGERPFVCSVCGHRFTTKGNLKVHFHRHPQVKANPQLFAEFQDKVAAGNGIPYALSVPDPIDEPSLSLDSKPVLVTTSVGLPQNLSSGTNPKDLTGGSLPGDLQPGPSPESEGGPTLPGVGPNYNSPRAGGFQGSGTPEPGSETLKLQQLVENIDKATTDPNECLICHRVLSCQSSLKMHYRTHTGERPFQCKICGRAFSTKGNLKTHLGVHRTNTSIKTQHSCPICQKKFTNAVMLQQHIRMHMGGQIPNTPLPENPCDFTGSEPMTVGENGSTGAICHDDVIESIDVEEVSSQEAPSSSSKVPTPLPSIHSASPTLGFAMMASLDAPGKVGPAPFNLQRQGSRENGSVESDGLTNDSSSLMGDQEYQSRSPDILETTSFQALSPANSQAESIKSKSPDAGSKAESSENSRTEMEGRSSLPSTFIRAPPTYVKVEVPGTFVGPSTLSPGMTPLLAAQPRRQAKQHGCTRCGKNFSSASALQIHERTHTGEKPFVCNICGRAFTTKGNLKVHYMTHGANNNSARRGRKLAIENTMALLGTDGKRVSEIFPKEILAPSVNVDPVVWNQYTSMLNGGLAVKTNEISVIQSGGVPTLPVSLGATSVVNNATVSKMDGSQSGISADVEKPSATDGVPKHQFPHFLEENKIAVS
Notes: 8-mer, flanks averaged, mean of replicates
AGCCAATG: -0.114
GGCCATCA: -0.157
AGGTTTAA: 0.167
ACGGGCTA: -0.134
CCATCTAC: -0.107
ATTGCCCG: -0.125
AATGGGAC: -0.135
AAATTGCC: 0.207
AATCTTCA: 0.27
CAAGGACG: -0.231
GCTCCTGA: -0.292
ATTGCTAG: 0.152
TGCCTGAA: 0.0284
AATGAGCC: -0.104
AACCCTAC: -0.14
CACAATAG: 0.148
CATGCTAG: 0.00738
GCGTGGAC: -0.294

Study 5 — target: UBE2H UBC core domain (UniProt P62256); technique: yeast two-hybrid; medium: yeast; notes: mostly zero background; relative to: not given; direction: higher = stronger interaction; measurement: lacZ reporter activity
Chain of UniProt P62256 (whole entry, looked up): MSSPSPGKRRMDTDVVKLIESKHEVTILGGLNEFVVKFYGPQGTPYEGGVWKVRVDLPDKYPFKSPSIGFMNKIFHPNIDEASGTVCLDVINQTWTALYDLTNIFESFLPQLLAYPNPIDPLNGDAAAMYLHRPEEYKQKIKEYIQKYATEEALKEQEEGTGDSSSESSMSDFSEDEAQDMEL
B1: MARCHF1 RING domain (UniProt Q8TCQ1); chain TAPRSQSRLSVCPSTQDICRICHCEGDEESPLITPCRCTGTLRFVHQSCLHQWIKSSDTRCCELCKYDFIMETKLKPLRKWE
B2: MID2 RING domain (UniProt Q9UJV3); chain KMETLESELTCPICLELFEDPLLLPCAHSLCFSCAHRILVSSCSSGESIEPITAFQCPTCRYVISLNHRGL
B3: RUFY1 RING domain (UniProt Q96T51); chain QALKGHAWLKDDEATHCRQCEKEFSISRRKHHCRNCGHIFCNTCSSNELALPSYPKPVRVCDSCHTLLLQRCSSTAS
B4: BFAR RING domain (UniProt Q9NZS9); chain GPQISVSEFSCHCCYDILVNPTTLNCGHSFCRHCLALWWASSKKTECPECREKWEGFPKVS
B5: ZNRF4 RING domain (UniProt Q8WWF5); chain VRTFTWHNDLCAICLDEYEEGDQLKILPCSHTYHCKCIDPWFSQAPRRSCPVCKQSVAATEDSF
B6: RNF6 RING domain (UniProt Q9Y252); chain NSIDSELGKICSVCISDYVTGNKLRQLPCMHEFHIHCIDRWLSENCTCPICRQPVLGSNIAN
B7: RNF103 RING domain (UniProt O00237); chain WPADMLHCTECVVCLENFENGCLLMGLPCGHVFHQNCIVMWLAGGRHCCPVCRWPSYKKKQPY
B8: HLTF RING domain (UniProt Q14527); chain LILSSGSDEECAICLDSLTVPVITHCAHVFCKPCICQVIQNEQPHAKCPLCRNDIHEDNLLE
B9: RNF182 RING domain (UniProt Q8N6D2); chain AESQASDELECKICYNRYNLKQRKPKVLECCHRVCAKCLYKIIDFGDSPQGVIVCPFCRFETCLPDDEV
B10: NFX1 RING domain (UniProt Q12986); chain IEQLTTEKYECMVCCELVRVTAPVWSCQSCYHVFHLNCIKKWARSPASQADGQSGWRCPACQNVSAHVPNTY
B11: MKRN3 RING domain (UniProt Q13064); chain FAVQRGMDKVCGICMEVVYEKANPNDRRFGILSNCNHSFCIRCIRRWRSARQFENRIVKSCPQCRVTSELVIPSE
B12: RNF186 RING domain (UniProt Q9NXI6); chain HSGSTECDLECLVCREPYSCPRLPKLLACQHAFCAICLKLLLCVQDNTWSITCPLCRKVTAVPGGLI
B1 (MARCHF1 RING domain): 0
B2 (MID2 RING domain): 0
B3 (RUFY1 RING domain): 0
B4 (BFAR RING domain): 0
B5 (ZNRF4 RING domain): 0
B6 (RNF6 RING domain): 0
B7 (RNF103 RING domain): 1290
FDPPLESKYECPICLMALREAVQTPCGHRFCKACIIKSIRDAGHKCPVDNEILLENQLFP (TRAF6 RING domain (UniProt Q9Y4K3)): 0
B8 (HLTF RING domain): 0
B9 (RNF182 RING domain): 0
B10 (NFX1 RING domain): 0
B11 (MKRN3 RING domain): 0
ASEEEFQFLRCQQCQAEAKCPKLLPCLHTLCSGCLEASGMQCPICQAPWPLGADTP (PML RING domain (UniProt P29590)): 0
FAEQPSVKLCCQLCCSVFKDPVITTCGHTFCRRCALKSEKCPVDNVKLTVVVNNI (TRAF7 RING domain (UniProt Q6Q0C0)): 0
B12 (RNF186 RING domain): 5120

Excerpt of the above (study 1):
S63D: 107%
V137Q: 4.34%
R113F: 99.3%
I105T: 98.6%
I172W: 87.4%
L28A: 83.1%
H122L: 72.7%
Y115L: 71.4%
